Results collected from several papers.
Compare with care: the assays were run in different laboratories.
Technique: steady-state kinetics
B1: BshA S17A (Bacillus subtilis, UniProt P42982); chain MRKLKIGITCYPSVGGAGIIATELGKQLAEKGHEIHFITSSIPFRLNTYHPNIHFHEVEVNQYAVFKYPPYDLTLASKIAEVAERENLDIIHAHYALPHAVCAYLAKQMLKRNIGIVTTLHGTDITVLGYDPSLKDLIRFAIESSDRVTAVSSALAAETYDLIKPEKKIETIYNFIDERVYLKKNTAAIKEKHGILPDEKVVIHVSNFRKVKRVQDVIRVFRNIAGKTKAKLLLVGDGPEKSTACELIRKYGLEDQVLMLGNQDRVEDLYSISDLKLLLSEKESFGLVLLEAMACGVPCIGTNIGGIPEVIKNNVSGFLVDVGDVTAATARAMSILEDEQLSNRFTKAAIEMLENEFSSKKIVSQYEQIYADLAEPE
B2: UGT1A9 (Homo sapiens, UniProt O60656); chain GKLLVVPMDGSHWFTMRSVVEKLILRGHEVVVVMPEVSWQLGRSLNCTVKTYSTSYTLEDLDREFKAFAHAQWKAQVRSIYSLLMGSYNDIFDLFFSNCRSLFKDKKLVEYLKESSFDAVFLDPFDNCGLIVAKYFSLPSVVFARGILCHYLEEGAQCPAPLSYVPRILLGFSDAMTFKERVRNHIMHLEEHLLCHRFFKNALEIASEILQTPVTEYDLYSHTSIWLLRTDFVLDYPKPVMPNMIFIGGINCHQGKPLPMEFEAYINASGEHGIVVFSLGSMVSEIPEKKAMAIADALGKIPQTVLWRYTGTRPSNLANNTILVKWLPQNDLLGHPMTRAFITHAGSHGVYESICNGVPMVMMPLFGDQMDNAKRMETKGAGVTLNVLEMTSEDLENALKAVINDKSYKENIMRLSSLHKDRPVEPLDLAVFWVEFVMRHKGAPHLRPAAHDLTWYQYHSLDVIGFLLAVVLTVAFITFKCCAYGYRKCLGKKGRVKKAHKSKTH
B3: enzyme (Halalkalibacterium halodurans, UniProt Q9KCN8); chain MLNVTQLQEATTFIQQQIETKPTIGLILGSGLGILADEIEQPVKVPYSDIPHFPVSTVQGHAGQLVIGMLEGKQVIAMQGRFHFYEGYSLEVVTFPVRVMKALGVEQIIVTNAAGGVNESFEAGDLMIIRDHINNMAQNPLIGPNDEAFGVRFPDMSNAYSERLRTLAKEKGNTLNLKLQEGVYVANTGPVYETPAEVRMIRKLGGDAVGMSTVPEVIVARHAGLEVLGISCISNMAAGILPQPLSHDEVIETTERVRQDFLNLVKAIVKDM
B4: IYD (Homo sapiens, UniProt Q6PHW0); chain MGEPRTRAEARPWVDEDLKDSSDLHQAEEDADEWQESEENVEHIPFSHNHYPEKEMVKRSQEFYELLNKRRSVRFISNEQVPMEVIDNVIRTAGTAPSGAHTEPWTFVVVKDPDVKHKIRKIIEEEEEINYMKRMGHRWVTDLKKLRTNWIKEYLDTAPILILIFKQVHGFAANGKKKVHYYNEISVSIACGILLAALQNAGLVTVTTTPLNCGPRLRVLLGRPAHEKLLMLLPVGYPSKEATVPDLKRKPLDQIMVTV
B5: SUOX R529M/V531M/Y400N (Homo sapiens, UniProt P51687); chain ESTHIYTKEEVSSHTSPETGIWVTLGSEVFDVTEFVDLHPGGPSKLMLAAGGPLEPFWALYAVHNQSHVRELLAQYKIGELNPEDKVAPTVETSDPYADDPVRHPALKVNSQRPFNAEPPPELLTENYITPNPIFFTRNHLPVPNLDPDTYRLHVVGAPGGQSLSLSLDDLHNFPRYEITVTLQCAGNRRSEMTQVKEVKGLEWRTGAISTARWAGARLCDVLAQAGHQLCETEAHVCFEGLDSDPTGTAYGASIPLARAMDPEAEVLLAYEMNGQPLPRDHGFPVRVVVPGVVGARHVKWLGRVSVQPEESYSHWQRRDNKGFSPSVDWETVDFDSAPSIQELPVQSAITEPRDGETVESGEVTIKGYAWSGGGRAVIRVDVSLDGGLTWQVAKLDGEEQRPRKAWAWRLWQLKAPVPAGQKELNIVCKAVDDGYNVQPDTVAPIWNLMGMLSNAWHRVHVYVSP
B6: ftsH (Escherichia coli, UniProt P0AAI3); chain MAKNLILWLVIAVVLMSVFQSFGPSESNGRKVDYSTFLQEVNNDQVREARINGREINVTKKDSNRYTTYIPVQDPKLLDNLLTKNVKVVGEPPEEPSLLASIFISWFPMLLLIGVWIFFMRQMQGGGGKGAMSFGKSKARMLTEDQIKTTFADVAGCDEAKEEVAELVEYLREPSRFQKLGGKIPKGVLMVGPPGTGKTLLAKAIAGEAKVPFFTISGSDFVEMFVGVGASRVRDMFEQAKKAAPCIIFIDEIDAVGRQRGAGLGGGHDEREQTLNQMLVEMDGFEGNEGIIVIAATNRPDVLDPALLRPGRFDRQVVVGLPDVRGREQILKVHMRRVPLAPDIDAAIIARGTPGFSGADLANLVNEAALFAARGNKRVVSMVEFEKAKDKIMMGAERRSMVMTEAQKESTAYHEAGHAIIGRLVPEHDPVHKVTIIPRGRALGVTFFLPEGDAISASRQKLESQISTLYGGRLAEEIIYGPEHVSTGASNDIKVATNLARNMVTQWGFSEKLGPLLYAEEEGEVFLGRSVAKAKHMSDETARIIDQEVKALIERNYNRARQLLTDNMDILHAMKDALMKYETIDAPQIDDLMARRDVRPPAGWEEPGASNNSGDNGSPKAPRPVDEPRTPNPGNTMSEQLGDK
B7: ycjQ (Escherichia coli, UniProt P76043); chain MKKLVATAPRVAALVEYEDRAILANEVKIRVRFGAPKHGTEVVDFRAASPFIDEDFNGEWQMFTPRPADAPRGIEFGKFQLGNMVVGDIIECGSDVTDYAVGDSVCGYGPLSETVIINAVNNYKLRKMPQGSSWKNAVCYDPAQFAMSGVRDANVRVGDFVVVVGLGAIGQIAIQLAKRAGASVVIGVDPIAHRCDIARRHGADFCLNPIGTDVGKEIKTLTGKQGADVIIETSGYADALQSALRGLAYGGTISYVAFAKPFAEGFNLGREAHFNNAKIVFSRACSEPNPDYPRWSRKRIEETCWELLMNGYLNCEDLIDPVVTFANSPESYMQYVDQHPEQSIKMGVTF
B8: speck E82A (Drosophila melanogaster, UniProt Q94521); chain MEDALTVSGKPAACPVDQDCPYTIELIQPEDGEAVIAMLKTFFFKDAPLNTFLDLGECKELEKYSLKPLPDNCSYKAVNKKGEIIGVFLNGLMRRPSPDDVPEKAADSCEHPKFKKILSLMDHVEEQFNIFDVYPDEELILDGKILSVDTNYRGLGIAGRLTERAYEYMRENGINVYHVLCSSHYSARVMEKLGFHEVFRMQFADYKPQGEVVFKPAAPHVGIQVMAKEVGPAKAAQTKL
Sequence of UniProt Q48796 (whole entry, looked up): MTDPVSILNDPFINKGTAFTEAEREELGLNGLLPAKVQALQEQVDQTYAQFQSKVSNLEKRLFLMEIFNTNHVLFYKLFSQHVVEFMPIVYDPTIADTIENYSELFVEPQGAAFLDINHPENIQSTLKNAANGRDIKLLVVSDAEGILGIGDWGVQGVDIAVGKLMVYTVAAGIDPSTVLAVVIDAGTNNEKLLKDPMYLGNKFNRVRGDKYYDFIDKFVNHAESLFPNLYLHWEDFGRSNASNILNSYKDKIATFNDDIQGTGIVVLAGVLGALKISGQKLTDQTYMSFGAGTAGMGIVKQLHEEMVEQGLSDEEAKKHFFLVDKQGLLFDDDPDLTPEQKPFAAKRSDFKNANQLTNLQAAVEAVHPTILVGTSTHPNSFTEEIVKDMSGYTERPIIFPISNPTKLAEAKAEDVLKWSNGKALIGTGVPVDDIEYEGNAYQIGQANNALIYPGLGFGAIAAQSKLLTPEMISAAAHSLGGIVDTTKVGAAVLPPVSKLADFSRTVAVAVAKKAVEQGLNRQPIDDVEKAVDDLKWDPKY
Sequence of UniProt P12081 (whole entry, looked up): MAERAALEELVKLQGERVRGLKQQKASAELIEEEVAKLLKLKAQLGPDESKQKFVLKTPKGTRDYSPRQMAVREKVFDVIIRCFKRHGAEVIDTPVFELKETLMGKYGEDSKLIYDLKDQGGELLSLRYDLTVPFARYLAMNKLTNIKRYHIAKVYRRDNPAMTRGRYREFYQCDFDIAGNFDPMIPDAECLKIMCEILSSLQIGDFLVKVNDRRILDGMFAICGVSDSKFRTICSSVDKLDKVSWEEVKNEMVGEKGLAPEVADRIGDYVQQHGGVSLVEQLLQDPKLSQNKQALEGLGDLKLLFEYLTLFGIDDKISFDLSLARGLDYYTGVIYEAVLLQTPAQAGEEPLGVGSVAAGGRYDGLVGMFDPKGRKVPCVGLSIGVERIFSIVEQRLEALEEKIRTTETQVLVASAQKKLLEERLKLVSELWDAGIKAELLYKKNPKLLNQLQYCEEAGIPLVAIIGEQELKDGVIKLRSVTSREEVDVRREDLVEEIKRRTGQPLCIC
Sequence of UniProt Q9Y274 (whole entry, looked up): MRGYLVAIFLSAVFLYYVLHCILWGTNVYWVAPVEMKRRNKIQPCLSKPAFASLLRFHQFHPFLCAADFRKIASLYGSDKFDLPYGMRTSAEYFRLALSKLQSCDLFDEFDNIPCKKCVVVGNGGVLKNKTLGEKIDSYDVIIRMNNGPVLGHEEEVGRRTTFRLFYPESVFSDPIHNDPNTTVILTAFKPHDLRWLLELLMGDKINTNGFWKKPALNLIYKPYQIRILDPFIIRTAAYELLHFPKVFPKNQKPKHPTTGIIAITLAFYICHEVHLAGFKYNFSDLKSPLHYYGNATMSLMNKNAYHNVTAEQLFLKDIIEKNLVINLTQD

B1 (BshA S17A)
Km (CC(=O)N[C@H]1[C@@H](OP(=O)(O)OP(=O)(O)OC[C@H]2O[C@@H](n3ccc(=O)[nH]c3=O)[C@H](O)[C@@H]2O)O[C@H](CO)[C@@H](O)[C@@H]1O; pH 7.5, 21 °C, together with: malate 0–25 mM): 600 µM

B2 (UGT1A9)
Km (CC(=O)c1ccc(O)cc1; pH 7.4, 37 °C): 317 µM

B3 (enzyme)
Km (Nc1nc2c(ncn2[C@@H]2O[C@H](CO)[C@@H](O)[C@H]2O)c(=O)[nH]1; pH 8): 206 µM

B4 (IYD)
Km (Cc1cc(C[C@H](N)C(=O)O)cc(I)c1O; pH 7.4, 25 °C, together with: sodium dithionite 0.5%): 50 µM

B5 (SUOX R529M/V531M/Y400N)
Km (O=[N+]([O-])O; pH 7, 25 °C, together with: dithionite-reduced methyl viologen): 30 µM

mleA (Oenococcus oeni, UniProt Q48796)
Km (NC(=O)c1ccc[n+]([C@@H]2O[C@H](COP(=O)(O)OP(=O)(O)OC[C@H]3O[C@@H](n4cnc5c(N)ncnc54)[C@H](O)[C@@H]3O)[C@@H](O)[C@H]2O)c1; pH 6, 45 °C, cofactor varied): 82 µM

B6 (ftsH)
Km (Nc1ncnc2c1ncn2[C@@H]1O[C@H](COP(=O)(O)OP(=O)(O)OP(=O)(O)O)[C@@H](O)[C@H]1O; pH 7.8, 37 °C, together with: Triton X-100 micelles): 400 µM

B7 (ycjQ)
Km (CO[C@@H]1O[C@H](CO)[C@H](O)C(=O)[C@H]1O; pH 7, 30 °C, together with: NADH 0.3 mM, MnCl2 0.5 mM): 2300 µM

HARS1 (Homo sapiens, UniProt P12081)
Km (N[C@@H](Cc1c[nH]cn1)C(=O)O; pH 7.5, 37 °C, KCl 150 mM, together with: tRNA(His)): 8 µM

B8 (speck E82A)
Km (CC(=O)SCCNC(=O)CCNC(=O)[C@H](O)C(C)(C)COP(=O)(O)OP(=O)(O)OC[C@H]1O[C@@H](n2cnc3c(N)ncnc32)[C@H](O)[C@@H]1OP(=O)(O)O; pH 7.2, 30 °C): 40 µM

ST3GAL6 (Homo sapiens, UniProt Q9Y274)
Km (CC(=O)N[C@H]1[C@H](O[C@H]2[C@@H](O)[C@@H](CO)O[C@@H](O[C@H]3[C@H](O)[C@@H](O)[C@H](Oc4ccc([N+](=O)[O-])cc4)O[C@@H]3CO)[C@@H]2O)O[C@H](CO)[C@@H](O)[C@@H]1O[C@@H]1O[C@H](CO)[C@H](O)[C@H](O)[C@H]1O; pH 6, together with: CMP-Neu5Ac): 360 µM

Repeated from above:
B6 (ftsH)
Km (Nc1ncnc2c1ncn2[C@@H]1O[C@H](COP(=O)(O)OP(=O)(O)OP(=O)(O)O)[C@@H](O)[C@H]1O; pH 7.8, 37 °C, together with: Triton X-100 micelles): 400 µM
